# Published values of several laboratories.
# Each line is one published result; not all experiments were run side by side. “And” joins repeats or separate records; there may be more than shown. Numbers after ± are the reported error.
# UniProt P05177, sequence (whole entry, looked up): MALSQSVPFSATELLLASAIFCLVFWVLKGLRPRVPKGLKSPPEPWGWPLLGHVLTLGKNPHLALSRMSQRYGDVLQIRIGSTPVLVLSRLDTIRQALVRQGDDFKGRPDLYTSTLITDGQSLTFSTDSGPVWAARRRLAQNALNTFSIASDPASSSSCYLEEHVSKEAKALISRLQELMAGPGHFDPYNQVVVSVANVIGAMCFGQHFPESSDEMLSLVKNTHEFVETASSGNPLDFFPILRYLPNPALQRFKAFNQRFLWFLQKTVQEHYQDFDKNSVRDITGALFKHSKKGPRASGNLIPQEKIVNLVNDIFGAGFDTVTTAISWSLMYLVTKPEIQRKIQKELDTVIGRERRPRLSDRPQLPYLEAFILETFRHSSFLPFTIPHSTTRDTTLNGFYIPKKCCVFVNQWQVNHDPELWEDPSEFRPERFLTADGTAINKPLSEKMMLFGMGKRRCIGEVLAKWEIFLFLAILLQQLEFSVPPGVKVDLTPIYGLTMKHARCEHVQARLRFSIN
# UniProt P07949, sequence (whole entry, unmodified, looked up): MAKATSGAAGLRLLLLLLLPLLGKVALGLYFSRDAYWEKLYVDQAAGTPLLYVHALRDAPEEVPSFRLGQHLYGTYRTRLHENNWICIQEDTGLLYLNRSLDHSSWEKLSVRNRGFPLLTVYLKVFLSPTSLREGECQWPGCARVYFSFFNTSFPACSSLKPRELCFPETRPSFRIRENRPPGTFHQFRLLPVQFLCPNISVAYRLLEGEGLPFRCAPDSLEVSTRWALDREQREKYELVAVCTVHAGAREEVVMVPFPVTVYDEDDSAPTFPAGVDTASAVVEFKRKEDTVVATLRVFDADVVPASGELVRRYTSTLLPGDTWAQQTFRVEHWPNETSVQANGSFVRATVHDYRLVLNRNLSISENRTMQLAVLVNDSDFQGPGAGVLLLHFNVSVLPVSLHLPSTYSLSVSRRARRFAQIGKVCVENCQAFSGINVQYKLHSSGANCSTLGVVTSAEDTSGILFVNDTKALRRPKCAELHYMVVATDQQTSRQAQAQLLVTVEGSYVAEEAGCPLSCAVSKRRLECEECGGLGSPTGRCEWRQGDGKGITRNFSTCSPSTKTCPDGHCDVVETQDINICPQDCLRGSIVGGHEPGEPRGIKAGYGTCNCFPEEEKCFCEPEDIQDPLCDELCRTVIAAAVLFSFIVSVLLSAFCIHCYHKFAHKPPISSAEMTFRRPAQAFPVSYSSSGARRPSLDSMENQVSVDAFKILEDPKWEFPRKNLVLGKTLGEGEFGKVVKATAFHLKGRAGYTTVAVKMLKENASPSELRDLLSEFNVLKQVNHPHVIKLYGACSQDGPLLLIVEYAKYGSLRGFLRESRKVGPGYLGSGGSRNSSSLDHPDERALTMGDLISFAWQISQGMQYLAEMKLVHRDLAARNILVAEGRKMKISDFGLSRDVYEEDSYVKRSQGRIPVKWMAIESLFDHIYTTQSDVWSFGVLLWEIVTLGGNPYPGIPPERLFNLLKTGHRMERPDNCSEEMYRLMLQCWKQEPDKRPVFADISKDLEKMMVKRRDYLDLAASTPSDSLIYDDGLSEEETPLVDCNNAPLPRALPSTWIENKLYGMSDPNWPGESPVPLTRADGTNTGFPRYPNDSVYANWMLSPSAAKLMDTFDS
# UniProt Q9HCG7, sequence (whole entry, looked up): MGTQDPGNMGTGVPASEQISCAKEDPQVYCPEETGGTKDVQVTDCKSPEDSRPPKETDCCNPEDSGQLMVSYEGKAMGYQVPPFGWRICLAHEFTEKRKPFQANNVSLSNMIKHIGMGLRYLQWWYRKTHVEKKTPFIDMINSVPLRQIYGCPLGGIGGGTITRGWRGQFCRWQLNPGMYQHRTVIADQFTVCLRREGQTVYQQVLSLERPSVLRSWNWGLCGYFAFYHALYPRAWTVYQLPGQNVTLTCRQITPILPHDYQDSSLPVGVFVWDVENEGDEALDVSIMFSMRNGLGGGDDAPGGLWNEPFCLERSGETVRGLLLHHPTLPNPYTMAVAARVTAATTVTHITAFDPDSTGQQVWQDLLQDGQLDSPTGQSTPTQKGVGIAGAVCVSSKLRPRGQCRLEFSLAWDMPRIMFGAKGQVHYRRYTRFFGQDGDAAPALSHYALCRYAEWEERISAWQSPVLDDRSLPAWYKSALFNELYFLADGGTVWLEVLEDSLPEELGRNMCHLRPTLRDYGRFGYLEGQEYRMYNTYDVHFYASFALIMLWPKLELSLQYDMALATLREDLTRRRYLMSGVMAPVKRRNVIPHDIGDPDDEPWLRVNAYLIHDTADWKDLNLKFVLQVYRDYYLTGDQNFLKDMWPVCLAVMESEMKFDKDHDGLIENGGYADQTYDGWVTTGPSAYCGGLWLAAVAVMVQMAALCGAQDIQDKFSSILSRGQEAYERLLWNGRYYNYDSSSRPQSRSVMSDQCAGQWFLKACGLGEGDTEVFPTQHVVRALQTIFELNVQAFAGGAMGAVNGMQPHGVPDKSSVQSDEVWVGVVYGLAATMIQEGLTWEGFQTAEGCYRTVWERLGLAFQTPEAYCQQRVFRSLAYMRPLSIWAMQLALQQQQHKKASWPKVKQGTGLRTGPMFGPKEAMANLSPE
Structure (SMILES),tested on,assay,system,setting,scale,measurement,result
C=CC(=O)Nc1cccc(Cn2ncc3cnc(Nc4cnn(CCOC)c4)nc32)c1,LRRK2 human,"binding, KINOMEscan",,100 nM,lower = stronger binding,percent of control,64%
CNS(=O)(=O)Nc1nccc(Cc2c(C)c3ccc(Oc4ncccc4F)cc3oc2=O)c1F,OUMS-23,cell viability,,7 days,,IC50,501 nM
COc1ccc2cc3[n+](cc2c1OCCCOC(=O)c1cscn1)CCc1cc2c(cc1-3)OCO2,,,"C57BL/6 mice, high-fat diet","oral gavage, 20 mg/kg daily, 14 weeks",baseline: HFD control,plasma total cholesterol reduction,35.6%
O=[N][Fe]1([N]=O)[S](CCO)[Fe]([N]=O)([N]=O)[S]1CCO,,,aged C57BL/6JNarl mice on Western diet,"po, 2.65 mg/kg daily, 16 weeks",,plasma glucose,153 ± 45.8 mg/dL
CCC(CC)n1c(Cc2cccs2)nc2cc(C(=O)N[C@@H](CC(=O)O)c3ccccc3)ccc21,,"refers to: systolic, diastolic pressure",mouse,"dose not given, 2 wk",,blood pressure,decreased
COc1cccc(OCCN2CCC[C@H](CN3CCc4cc(OC)c(OC)cc4CC3=O)C2)c1,,,"C57BL/6J mouse, male, stress-naive","intraperitoneal, 5 mg/kg, 14 d post-dose",baseline: before dosing,"time in centre, open field",no effect
O=C([O-])CN1Cc2cccc(n2)CN(CC(=O)[O-])Cc2cccc(n2)C1.[Mn+2],,,HEPES buffer with NaCl,"33 °C, 1.4 T",,r1 relaxivity,2.55 mM⁻¹ s⁻¹
CCCCCc1ccc(S(=O)(=O)N2CC2C(=O)OC)cc1 (stereo not shown),,,"mouse, Lewis lung carcinoma","intraperitoneal, 5 mg/kg, 16 doses, day 11",,tumour volume,216 mm3
CC(=O)[O-].O.O.O.O.[Co+2].[O-]c1ccc(Br)cc1C=NCCN1CCOCC1,,DPPH radical scavenging,,40 µM,,inhibition,15.3%
C#CC(C)(C)C(=O)SCCOP1(=O)OCC2OC(n3cnc4c(N)ncnc43)CC2OP(=O)(OCCSC(=O)C(C)(C)C#C)OCC2OC(n3cnc4c(N)ncnc43)CC2O1 (stereo not shown),,,mouse B16-F10 melanoma,"intratumoral, 1 mg/kg, three doses at 3-day intervals",,complete response rate,50%
COc1cnc2cccc(N3CCc4c(cc(Cn5ccnc5)cc4-c4cn(C)nc4C(F)(F)F)C3=O)c2c1,,,"BALB/c nude mice, MV4-11 xenograft","intraperitoneal, 75 mg/kg, day 17",,tumour volume,153 mm3 and 119 mm3 and 140 mm3 and 143 mm3 and 144 mm3
Cc1nn(-c2cccc(N)c2)c(=O)c2cnc(Nc3ccc(N4CCNCC4)cc3)nc12,"RET (Homo sapiens, UniProt P07949, V804L)","enzyme activity, inhibitor",,,,IC50,> 10000 nM
Cc1[nH]nc2c1N=C(c1ccccc1Cl)c1cnc(N3CCOCC3)cc1N2,,,mouse sample BC TNBC PDX,"oral, 15 mg/kg, 120 h, 5 days per week",,tumour growth inhibition,94%
COc1cc(O)ccc1CCC(c1ccc(O)cc1)c1cc2c(c(C)c1O)OC(c1ccc(O)cc1)CC2 (mixture of isomers),,refers to: 14-HDHA,human whole blood,"0.3 µM, with: Escherichia coli",,amount,8910 ± 3170 pg/mL blood
COC1CN([C@H]2CC[C@H]([C@@]3(C)Oc4c(Cl)cc(C(=O)NCc5c(SC)cc(C)[nH]c5=O)c(C)c4O3)CC2)C1,,"RNA-seq, refers to: HIC1","human, whole blood","dose not given, 24 h",baseline: pretreatment baseline,log2 fold change,1.08
COc1cc2c(NC3CCN(C(C)C)CC3)cc(N3CCOCC3)nc2cc1OCCCN1CCCC1,,"TMT proteomics, refers to: TPI1","5xFAD mice, hippocampus",dose not given,baseline: wild-type mice,log2 fold change,0.00377
OC[C@H]1N[C@H](CCCCCCOCC23CC4CC(CC(C4)C2)C3)[C@H](O)[C@@H](O)[C@@H]1O,"Beta-glucosidase (GBA2, Homo sapiens, UniProt Q9HCG7)","inhibitor, 4MU-β-D-glucopyranoside",HEK293T homogenates overexpressing GBA2,,baseline: GBA1 IC50 over GBA2 IC50,selectivity ratio,2
C[C@H](NC(=O)COC(=O)[C@H](C)NC(=O)CO)C(=O)O,,,water,"pH 2, 25 °C",,backbone scission rate constant,0.0005 h⁻¹
COc1ccc(C(=O)CCc2cc(C(CCc3ccc(O)cc3OC)c3ccc(O)cc3)c(O)cc2OC)cc1 (racemic),,,human blood,"10 µM, with: A23187",,DHA level,129000 ± 46800 pg/mL
CN(C)Cc1nc(Nc2ccc(-c3cnc4cc(F)ccn34)c3c2C(=O)NC3)ccc1C1CCOC1 (stereo not shown),,,mouse EMT6 syngeneic tumour,"75 mg/kg per day, day 28",,complete responses,6 mice of 20
CC(C)C[C@H](NC(=O)CNC(=O)[C@H](CCC(N)=O)NC(=O)[C@H](CC(C)C)NC(=O)[C@H](CC(C)C)NC(=O)[C@H](CCCNC(=N)N)NC(=O)[C@H](CCC(N)=O)NC(=O)[C@H](CC(C)C)NC(=O)[C@H](CCCNC(=N)N)NC(=O)[C@H](C)NC(=O)CNC(=O)[C@H](CCC(=O)O)NC(=O)[C@H](CCCNC(=N)N)NC(=O)[C@H](CC(C)C)NC(=O)[C@H](CCCNC(=N)N)NC(=O)[C@H](CO)NC(=O)[C@H](CC(C)C)NC(=O)[C@H](CCC(=O)O)NC(=O)[C@H](CO)NC(=O)[C@@H](NC(=O)[C@H](Cc1ccccc1)NC(=O)[C@@H](NC(=O)CNC(=O)[C@H](CC(=O)O)NC(=O)C(C)(C)NC(=O)[C@@H](N)Cc1c[nH]cn1)[C@@H](C)O)[C@@H](C)O)C(=O)N[C@@H](CC(C)C)C(=O)N[C@@H](CCC(N)=O)C(=O)NCC(=O)N[C@@H](CC(C)C)C(=O)N[C@H](C(=O)NCC(=O)N[C@@H](CCCCNC(=O)COCCOCCNC(=O)COCCOCCNC(=O)CC[C@H](NC(=O)CCCCCCCCCCCCCCCCC(=O)O)C(=O)O)C(N)=O)C(C)C,,,DIO C57BL/6J mice,"sc, 300 nmol/kg twice daily, end of 8 days",,plasma glycerol,no effect
CC(CCC(=O)NCc1ccc(C(=O)NO)cc1)C1CCC2C3C(O)CC4CC(O)CCC4(C)C3CCC12C (stereo not shown),,refers to: Glyco-conj,"PCK rat (Pkhd1 mutant), portal blood","oral gavage, dose not given, 5 months",baseline: total bile acids,relative abundance,10.9%
Cc1ncsc1-c1ccc(C(C)NC(=O)C2CC(O)CN2C(=O)C(NC(=O)CCCCCCCCCCN2CCCC(Nc3ncc(Cl)c(Nc4ccccc4S(=O)(=O)C(C)C)n3)C2)C(C)(C)C)cc1 (stereo not shown),22Rv1,"RNA-seq, refers to: S1PR3 mRNA",,concentration not given,baseline: DMSO,log2 fold change,-1.68
CNC(=O)C1CCCN(C(=O)C2CC3CCC2N3C(=O)[C@@H]2C[C@@H](O)CN2C(=O)NCc2cccc(Cl)c2F)C1 (mixture of isomers),"Cytochrome P450 1A2 (CYP1A2, Homo sapiens, UniProt P05177)",preincubation with NADPH,human,0.617 µM,baseline: negative control,remaining activity,106% and 108%
CC(C)C[C@H](NC(=O)[C@H](Cc1ccc(O)cc1)NC(=O)[C@@H](CCCNC(=N)N)NC(=O)[C@@H](CO)NC(=O)[C@H](Cc1ccccc1)NC(=O)[C@H](CC1CCCCC1)NC(=O)[C@H](CC(=O)O)NC(=O)CN1CCN(CC(=O)O)CCN(CC(=O)O)CCN(CC(=O)O)CC1)C(=O)N[C@@H](Cc1c[nH]c2ccccc12)C(=O)N[C@@H](CO)C(=O)O [copper-64 labelled],,,"human, small intestine","concentration not given, 24 h",,activity concentration,1070 Bq/mL and 569 Bq/mL and 1500 Bq/mL and 1990 Bq/mL and 2310 Bq/mL and 1210 Bq/mL
O=S(=O)(NCc1ccncc1)c1ccc(C2CCCCC2)cc1,,immunohistochemistry,"CK-p25 mice female, hippocampal granule layer","ip, 0.3 mg/kg daily, 6 wk",baseline: vehicle,intact GFP+ granule cells,~1.4 fold
N=C(N)NCCC[C@@H]1NC(=O)[C@H](CCCNC(=N)N)NC(=O)[C@@H](CCCNC(=N)N)NC(=O)[C@@H](CCCNC(=N)N)NC(=O)[C@@H](C(c2ccccc2)c2ccccc2)NC(=O)[C@H](Cc2c[nH]c3ccccc23)NC(=O)[C@@H](C(c2ccccc2)c2ccccc2)NC1=O,,,mammalian membrane liposomes,"50 µg/mL, 100 min",,calcein leakage,12 to 18%
CN1CCC[C@]1(C)/C=C/S(=O)(=O)NC(=O)Nc1c2c(cc3c1CCC3)CCC2,,,"human, whole blood ex vivo","400 mg single dose, 24 h, single ascending dose, with: LPS and ATP",,IL-18 inhibition,75.3%
C=C(NC(=O)c1csc(-c2nc3c(cc2O)-c2nc(cs2)C(=O)NC(C(C)O)C(=O)NC(=C(C)OC)c2nc(cs2)C(=O)NC2c4nc(cs4)C(=O)NC(COC(=O)c4c5c6c(cccc6n4O)COC(=O)C(OC4CC(C)(O)C(N(C)C)C(C)O4)C2OC5)c2nc-3cs2)n1)C(N)=O (stereo not shown),,,"ICR mice, Streptococcus pneumoniae ATCC 49169 infected, immunocompromised, blood","intravenous, 4 mg/kg/day once daily",,Cmax,415 ng/mL
Nc1ncc(-c2cc(-c3cnn(CC(F)(F)F)c3)ncc2F)nc1C(=O)NC1CNCC(F)C1 (stereo not shown),ERK5,KINOMEscan,,1 µM,baseline: DMSO control,remaining binding,99%
CC(C)C[C@H](NC(=O)[C@@H](CCCCNC(=O)[C@@H](Cc1ccccc1)NC(=O)CCCCCNC(=O)CN1CCN(CC(=O)O)CCN(CC(=O)O)CCN(CC(=O)O)CC1)NC(=O)[C@H](Cc1ccc(O)cc1)NC(=O)[C@H](CO)NC(=O)[C@H](Cc1c[nH]c2ccccc12)NC(=O)[C@H](Cc1c[nH]cn1)NC(=O)[C@@H]1CCC(=O)N1)C(=O)N[C@@H](CCCNC(=N)N)C(=O)N1CCC[C@H]1C(=O)NCC(N)=O [indium-111 labelled],,,"female athymic nude mice, lung","intravenous, 0.037 MBq, 4 h",,tissue uptake,0.1 ± 0.04 %ID/g

# Some of these lines once more:
Structure (SMILES),tested on,assay,system,setting,scale,measurement,result
O=S(=O)(NCc1ccncc1)c1ccc(C2CCCCC2)cc1,,immunohistochemistry,"CK-p25 mice female, hippocampal granule layer","ip, 0.3 mg/kg daily, 6 wk",baseline: vehicle,intact GFP+ granule cells,~1.4 fold
N=C(N)NCCC[C@@H]1NC(=O)[C@H](CCCNC(=N)N)NC(=O)[C@@H](CCCNC(=N)N)NC(=O)[C@@H](CCCNC(=N)N)NC(=O)[C@@H](C(c2ccccc2)c2ccccc2)NC(=O)[C@H](Cc2c[nH]c3ccccc23)NC(=O)[C@@H](C(c2ccccc2)c2ccccc2)NC1=O,,,mammalian membrane liposomes,"50 µg/mL, 100 min",,calcein leakage,12 to 18%
